Assay results gathered from unrelated publications.
Parts stem from different laboratories: compare values within a part only. Several values in a cell are separate wells, animals, samples, runs or records.
Chain of UniProt P36897 (whole entry, looked up): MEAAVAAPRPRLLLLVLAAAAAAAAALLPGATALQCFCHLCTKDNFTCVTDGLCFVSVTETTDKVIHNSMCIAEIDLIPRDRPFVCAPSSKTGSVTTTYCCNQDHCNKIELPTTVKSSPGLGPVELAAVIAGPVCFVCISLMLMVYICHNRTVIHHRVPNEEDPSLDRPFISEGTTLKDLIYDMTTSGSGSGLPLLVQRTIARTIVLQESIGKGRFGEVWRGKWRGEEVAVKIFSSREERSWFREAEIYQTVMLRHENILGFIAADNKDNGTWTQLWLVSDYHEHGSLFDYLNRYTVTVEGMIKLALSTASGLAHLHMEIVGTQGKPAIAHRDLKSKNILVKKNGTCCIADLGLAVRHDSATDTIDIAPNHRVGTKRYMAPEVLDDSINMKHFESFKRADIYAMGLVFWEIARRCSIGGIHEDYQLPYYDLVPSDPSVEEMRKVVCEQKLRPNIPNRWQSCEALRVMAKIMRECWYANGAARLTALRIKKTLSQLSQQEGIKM
Chain of UniProt O95747 (whole entry, looked up): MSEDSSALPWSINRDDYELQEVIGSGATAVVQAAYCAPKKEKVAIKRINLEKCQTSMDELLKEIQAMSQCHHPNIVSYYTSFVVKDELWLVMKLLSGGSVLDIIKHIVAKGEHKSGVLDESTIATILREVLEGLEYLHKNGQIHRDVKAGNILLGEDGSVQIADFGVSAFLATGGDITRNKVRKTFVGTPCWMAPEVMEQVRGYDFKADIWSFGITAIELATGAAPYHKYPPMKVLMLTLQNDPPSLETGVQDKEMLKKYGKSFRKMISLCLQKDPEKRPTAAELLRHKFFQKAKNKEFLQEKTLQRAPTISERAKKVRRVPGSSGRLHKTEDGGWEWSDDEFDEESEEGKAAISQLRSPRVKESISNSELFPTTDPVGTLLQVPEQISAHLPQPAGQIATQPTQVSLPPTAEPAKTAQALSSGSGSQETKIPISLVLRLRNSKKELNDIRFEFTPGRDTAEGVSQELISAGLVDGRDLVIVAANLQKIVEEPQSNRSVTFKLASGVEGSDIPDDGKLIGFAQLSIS
Chain of UniProt Q9H2G2 (whole entry, looked up): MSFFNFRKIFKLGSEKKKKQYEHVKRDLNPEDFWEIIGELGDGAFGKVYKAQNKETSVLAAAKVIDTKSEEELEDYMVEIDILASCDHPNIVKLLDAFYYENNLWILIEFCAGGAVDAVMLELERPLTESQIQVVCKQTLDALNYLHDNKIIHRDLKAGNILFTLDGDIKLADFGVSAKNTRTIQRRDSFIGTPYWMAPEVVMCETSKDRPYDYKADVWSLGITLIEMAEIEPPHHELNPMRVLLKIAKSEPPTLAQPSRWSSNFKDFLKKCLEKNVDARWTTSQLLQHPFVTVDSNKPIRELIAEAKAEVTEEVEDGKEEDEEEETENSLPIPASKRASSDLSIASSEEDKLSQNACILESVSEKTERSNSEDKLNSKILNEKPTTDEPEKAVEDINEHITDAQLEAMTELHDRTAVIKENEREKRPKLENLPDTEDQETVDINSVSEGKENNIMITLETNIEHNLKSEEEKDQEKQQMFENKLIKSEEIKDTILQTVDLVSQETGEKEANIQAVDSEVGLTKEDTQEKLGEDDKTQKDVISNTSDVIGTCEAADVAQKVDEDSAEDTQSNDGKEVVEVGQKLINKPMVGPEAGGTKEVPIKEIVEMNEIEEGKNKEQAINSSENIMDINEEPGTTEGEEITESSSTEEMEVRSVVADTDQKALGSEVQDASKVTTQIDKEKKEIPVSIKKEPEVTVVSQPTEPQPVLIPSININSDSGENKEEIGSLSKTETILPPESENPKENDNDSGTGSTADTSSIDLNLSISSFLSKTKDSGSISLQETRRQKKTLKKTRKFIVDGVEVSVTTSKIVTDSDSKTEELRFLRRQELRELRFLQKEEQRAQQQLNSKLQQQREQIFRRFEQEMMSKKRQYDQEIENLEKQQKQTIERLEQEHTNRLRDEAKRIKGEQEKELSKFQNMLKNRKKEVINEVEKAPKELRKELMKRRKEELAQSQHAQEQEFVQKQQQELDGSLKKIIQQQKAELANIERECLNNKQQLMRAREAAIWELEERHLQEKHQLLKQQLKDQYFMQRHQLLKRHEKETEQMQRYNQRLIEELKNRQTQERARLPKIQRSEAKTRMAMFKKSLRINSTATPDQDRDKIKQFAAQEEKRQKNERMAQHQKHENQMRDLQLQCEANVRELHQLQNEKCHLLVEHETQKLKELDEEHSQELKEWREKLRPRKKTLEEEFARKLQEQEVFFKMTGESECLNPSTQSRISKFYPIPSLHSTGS
Chain of UniProt Q07002 (whole entry, looked up): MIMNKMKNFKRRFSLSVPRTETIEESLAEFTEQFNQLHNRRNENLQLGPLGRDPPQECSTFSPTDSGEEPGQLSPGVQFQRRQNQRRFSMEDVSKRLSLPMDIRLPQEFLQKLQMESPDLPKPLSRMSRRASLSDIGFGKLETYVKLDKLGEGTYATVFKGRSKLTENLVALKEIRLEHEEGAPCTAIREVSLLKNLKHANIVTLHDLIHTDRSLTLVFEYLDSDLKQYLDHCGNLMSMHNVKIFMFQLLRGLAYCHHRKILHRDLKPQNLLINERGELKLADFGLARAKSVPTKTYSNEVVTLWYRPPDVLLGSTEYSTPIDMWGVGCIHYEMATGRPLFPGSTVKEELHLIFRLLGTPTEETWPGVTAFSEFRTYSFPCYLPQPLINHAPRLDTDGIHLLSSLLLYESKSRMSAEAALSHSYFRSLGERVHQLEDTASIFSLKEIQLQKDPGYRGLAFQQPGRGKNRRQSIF
Chain of UniProt P11802 (whole entry, looked up): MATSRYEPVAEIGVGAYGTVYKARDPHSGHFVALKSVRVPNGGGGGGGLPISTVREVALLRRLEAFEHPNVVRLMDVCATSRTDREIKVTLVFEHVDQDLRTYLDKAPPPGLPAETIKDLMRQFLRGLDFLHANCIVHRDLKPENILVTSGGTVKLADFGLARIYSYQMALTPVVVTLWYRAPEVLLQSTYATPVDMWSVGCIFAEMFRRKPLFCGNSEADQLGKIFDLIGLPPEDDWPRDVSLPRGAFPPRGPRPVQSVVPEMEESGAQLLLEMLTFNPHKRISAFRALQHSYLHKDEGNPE
Chain of UniProt O94804 (whole entry, looked up): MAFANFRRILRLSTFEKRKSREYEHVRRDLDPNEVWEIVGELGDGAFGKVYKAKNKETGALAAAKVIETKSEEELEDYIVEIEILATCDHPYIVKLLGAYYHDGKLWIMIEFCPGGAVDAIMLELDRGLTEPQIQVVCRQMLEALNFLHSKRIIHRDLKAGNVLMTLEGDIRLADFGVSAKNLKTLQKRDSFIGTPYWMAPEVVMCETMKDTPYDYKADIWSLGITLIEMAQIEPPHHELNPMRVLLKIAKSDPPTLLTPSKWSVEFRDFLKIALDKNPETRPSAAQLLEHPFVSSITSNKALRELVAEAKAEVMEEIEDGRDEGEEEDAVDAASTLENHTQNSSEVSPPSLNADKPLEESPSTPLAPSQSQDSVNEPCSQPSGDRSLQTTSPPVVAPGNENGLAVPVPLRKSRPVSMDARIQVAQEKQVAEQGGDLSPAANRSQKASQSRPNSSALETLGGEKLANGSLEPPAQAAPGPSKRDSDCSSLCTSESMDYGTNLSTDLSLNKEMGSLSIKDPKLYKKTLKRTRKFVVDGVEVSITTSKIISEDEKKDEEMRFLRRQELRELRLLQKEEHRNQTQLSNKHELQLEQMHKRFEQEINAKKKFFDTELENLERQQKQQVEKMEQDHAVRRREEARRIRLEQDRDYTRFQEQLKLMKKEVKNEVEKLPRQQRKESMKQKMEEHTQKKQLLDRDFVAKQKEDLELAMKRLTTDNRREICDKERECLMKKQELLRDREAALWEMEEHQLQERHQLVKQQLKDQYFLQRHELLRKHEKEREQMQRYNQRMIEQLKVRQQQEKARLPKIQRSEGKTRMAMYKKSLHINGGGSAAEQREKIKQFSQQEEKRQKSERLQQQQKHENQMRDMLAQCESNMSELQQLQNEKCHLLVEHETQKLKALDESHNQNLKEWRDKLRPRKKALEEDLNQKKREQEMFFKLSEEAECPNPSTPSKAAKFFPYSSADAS
Chain of UniProt Q99759 (whole entry, looked up): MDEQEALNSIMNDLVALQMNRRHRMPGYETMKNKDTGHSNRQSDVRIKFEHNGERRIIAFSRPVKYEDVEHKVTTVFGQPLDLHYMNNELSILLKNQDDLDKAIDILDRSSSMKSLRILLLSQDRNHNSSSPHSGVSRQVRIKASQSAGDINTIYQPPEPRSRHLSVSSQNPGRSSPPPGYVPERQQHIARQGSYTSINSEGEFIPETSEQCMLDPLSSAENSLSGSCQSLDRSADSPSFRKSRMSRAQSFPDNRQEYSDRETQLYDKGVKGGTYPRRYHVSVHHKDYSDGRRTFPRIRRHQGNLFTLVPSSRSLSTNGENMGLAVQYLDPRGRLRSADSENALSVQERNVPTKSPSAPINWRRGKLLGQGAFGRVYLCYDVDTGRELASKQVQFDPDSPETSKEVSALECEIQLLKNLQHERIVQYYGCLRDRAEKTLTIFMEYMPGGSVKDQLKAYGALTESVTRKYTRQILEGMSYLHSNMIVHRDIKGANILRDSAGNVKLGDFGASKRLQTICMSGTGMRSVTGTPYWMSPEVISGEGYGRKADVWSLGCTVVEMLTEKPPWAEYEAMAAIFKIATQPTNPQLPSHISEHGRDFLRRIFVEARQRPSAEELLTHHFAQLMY
Chain of UniProt Q9UIK4 (whole entry, looked up): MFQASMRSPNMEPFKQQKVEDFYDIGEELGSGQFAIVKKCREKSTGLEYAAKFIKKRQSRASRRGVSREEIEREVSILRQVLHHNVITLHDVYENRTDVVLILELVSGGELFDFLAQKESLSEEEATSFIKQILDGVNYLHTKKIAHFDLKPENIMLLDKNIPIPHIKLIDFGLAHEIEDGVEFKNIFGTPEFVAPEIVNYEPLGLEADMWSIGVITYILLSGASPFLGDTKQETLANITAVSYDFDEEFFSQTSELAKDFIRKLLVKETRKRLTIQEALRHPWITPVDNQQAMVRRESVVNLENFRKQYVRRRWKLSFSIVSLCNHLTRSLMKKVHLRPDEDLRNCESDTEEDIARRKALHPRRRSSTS

Series 1
SMILES: CCN(CC)CCCCN1c2ccccc2Oc2ccc(Cl)cc21
Read-out: enzyme activity
Mode: inhibitor
Concentration: 0.5 µM
Reference: control
target	remaining activity [%]
PRKACA (Homo sapiens, UniProt P17612)	98.4
DAPK1 (Homo sapiens, UniProt P53355)	76.6
MAP3K3 (Homo sapiens, UniProt Q99759)	103
TGFBR1 (Homo sapiens, UniProt P36897)	97.2
MAPK9 (Homo sapiens, UniProt P45984)	105
IKBKB (Homo sapiens, UniProt O14920)	96.6
CHEK2 (Homo sapiens, UniProt O96017)	105
Tyrosine-protein kinase Lyn, isoform B (LYN, Homo sapiens, UniProt P07948)	115
Protein kinase C beta type, isoform beta-I (PRKCB, Homo sapiens, UniProt P05771)	101
CAMK2D (Homo sapiens, UniProt Q13557)	105
DAPK2 (Homo sapiens, UniProt Q9UIK4)	99
Cyclin-dependent kinase 5, with p25 (CDK5, Homo sapiens, UniProt Q00535)	91
CAMKK2 (Homo sapiens, UniProt Q96RR4)	105
IKBKE (Homo sapiens, UniProt Q14164)	102
TGFBR2 (Homo sapiens, UniProt P37173)	96
GRK3 (Homo sapiens, UniProt P35626)	87.5
Cyclin-dependent kinase 4, with cyclin D1 (CDK4, Homo sapiens, UniProt P11802)	107
PRKCA (Homo sapiens, UniProt P17252)	83
STK11 (Homo sapiens, UniProt Q15831)	94.4
STK10 (Homo sapiens, UniProt O94804)	97.1
STK39 (Homo sapiens, UniProt Q9UEW8)	83.5
OXSR1 (Homo sapiens, UniProt O95747)	89.8
cGMP-dependent protein kinase 1, isoform beta (PRKG1, Homo sapiens, UniProt Q13976)	91.3

Series 2
Structure (SMILES): Cc1c(NC(=O)c2cc(C(N)=O)nc3cc(F)ccc23)c(C(F)(F)F)nn1Cc1ccc(C#N)cc1
Concentration: 1 µM
target	read-out	method	remaining binding [%]
ALK (Homo sapiens, UniProt Q9UM73, L1196M)	cell-free assay	competition with immobilised ligand	83
WNK1 (Homo sapiens, UniProt Q9H4A3)	cell-free assay	competition with immobilised ligand	80
FGFR3 (Homo sapiens, UniProt P22607)	cell-free assay	competition with immobilised ligand	99
CDC42BPG (Homo sapiens, UniProt Q6DT37)		competition binding	91
BRSK2 (Homo sapiens, UniProt Q8IWQ3)	cell-free assay	competition with immobilised ligand	100
LCK (Homo sapiens, UniProt P06239)	binding	competition with immobilised ligand	98
TGFBR1 (Homo sapiens, UniProt P36897)	cell-free assay	competition with immobilised ligand	80
CDK18 (Homo sapiens, UniProt Q07002)	cell-free assay	competition with immobilised ligand	100
eIF-2-alpha kinase GCN2, C-terminal kinase domain (EIF2AK4, Homo sapiens, UniProt Q9P2K8, S808G)	cell-free assay	competition with immobilised ligand	100
MAP3K12 (Homo sapiens, UniProt Q12852)	cell-free assay	competition with immobilised ligand	89
PIK3CA (Homo sapiens, UniProt P42336, M1043I)	cell-free assay	competition with immobilised ligand	91
KIT (Homo sapiens, UniProt P10721, V559D)	cell-free assay	competition with immobilised ligand	100
Insulin receptor (INSR, Homo sapiens, UniProt P06213)	cell-free assay	competition with immobilised ligand	100
FGR (Homo sapiens, UniProt P09769)	cell-free assay	competition with immobilised ligand	93
MYLK3 (Homo sapiens, UniProt Q32MK0)	cell-free assay	competition with immobilised ligand	79
HIPK4 (Homo sapiens, UniProt Q8NE63)	cell-free assay	competition with immobilised ligand	100
Tyrosine-protein kinase ABL1, phosphorylated (ABL1, Homo sapiens, UniProt P00519, H396P)	cell-free assay	competition with immobilised ligand	81
SLK (Homo sapiens, UniProt Q9H2G2)	cell-free assay	competition with immobilised ligand	100

Series 3
Species: human
Matrix: microsomes or S9
Concentration: 2 µM
Time: 0.5 h
Structure (SMILES)	remaining compound [%]
CC1(C)CC(=O)C2=C(C1)c1c(ccc3ccccc13)NC2c1cccnc1 (stereo not shown)	46
CCc1nnc(NCCc2cncn2C)c(C#N)c1CC	99.9
O=C(C1CC(=O)N(C2CCCC2)C1)N1CCC(c2nnc3n2CCNC3)CC1 (stereo not shown)	72.1
O=C1c2ccsc2CCC1N1CCN(c2ncccn2)CC1 (stereo not shown)	5.29

Single results of other studies
Structure (SMILES)	target	cell line	concentration	notes	reference	endpoint	result
Ic1ccc(Nc2nc(NCCN3CCOCC3)nc(N3CCOCC3)n2)cc1	lysosomal β-galactosidase (human, wild type)	healthy dermal fibroblasts	1 µM	unit not given	DMSO	remaining activity	1.09 and 1.11 and 1.21 and 1.19

Excerpt of the above (series 1):
target	remaining activity [%]
STK10 (Homo sapiens, UniProt O94804)	97.1
STK39 (Homo sapiens, UniProt Q9UEW8)	83.5
OXSR1 (Homo sapiens, UniProt O95747)	89.8
